# Experimental data from different studies.
# Numbered parts are unrelated; each lists some results of a single study.

# Study 1
# Target: RNA binding protein fox-1 homolog 2, RRM domain, GST-SBP tag (RBFOX2, Homo sapiens, UniProt O43251-10, residues 100-194)
# Method: RNA Bind-n-Seq
# Molecule type: RNA
# Sample: in vitro
# Tested at: 365 nM
# Notes: natural RNA segment, single round, ends assumed
# Reference: no-protein control
# Direction: higher = stronger binding
# Constant ends, left off below: GGGAGUUCUACAGUCCGACGAUC … UGGAAUUCUCGGGUGCCAA
# Construct (chain): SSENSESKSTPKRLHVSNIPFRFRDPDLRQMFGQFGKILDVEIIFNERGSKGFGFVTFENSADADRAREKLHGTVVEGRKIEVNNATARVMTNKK
Oligonucleotide,RBNS enrichment (R)
CUUAGUUUGUGAUGAUUACAUUGCUUUUUGUUGUCCAGUAGUUUAGUUUGUGUACAUAUAUACACAUAUAUAUUUUGCACUACACAAACGAUAACAUUUUAAGGACUAAU,0.38
UAUGGUGGGUAUGAGGGGCCAGCUGAUACCAACCAACUGGCCUGUAUCUAUCUAUCUGGAUUUGACUUGAAUUUUUAAAAUGUGUAUCGUUUAAAAAAAAAAAUGUUUGC,0.983
ACUAGCUGAGCCGAUUCCUUCCUGUGAGCACACUGUAAGCUUUCAAGUUCUCUGGGCAGGAAUUACAGCACCUGUCCCCUGCAAUGGCCCUGCUGUGUGAUGCUCAUCGC,0.3
CAGUUUGGGUUCACAAAAGGGGGUGCCGUCAUCCCUGGGUGGAGGAGGGAGUGUUGGUUUUUUGUUUUUGUUUUUUUAACAUGUAUGAAACUGACAUCUUCUCAAAUCUU,0.279
GGGGCCUUCCUUGUCCCCCCGUGGACUCUCCAAUGUGGGACCUCGGUCCUGGGCUCUCACCGGGGUCUGUCAUUGGCUCUGCACAGGCUGCAUGAACCCACGCACCUGUC,0.867
GAAAUGUUCUCUAGGAUUCUAAAAUAGGCAGGUACUUUACUAUGUUACUGUACCCUGCAGUGUUGAUUUUUAAAAUAGAGUUUUCUGCAGUAUGCUUUUAGUCUAAGAAA,0.666
CACACCCUUUCCCUCACCUGUACUAGAGCUUGGCUUGAGGAAGGAAUGAAGGAGCAGCCUUCUGUUUACUAGAAAAAUGUUUGGGUUCACACGUGGUGCUGCUGCCCUGG,0.465
CCCCAAGCCUCCACGUCUAACGGGCUCCCGAAGUGCUGCUGCUUCCAAGCAAGGAUUUUGCACCGCAGCUGCUUGGAUGUAUUUAAACUCCUCAUGGUUCAGAUAGCUAU,1.09
UGAGAGUAGACCUGGUUACCGGCAGUGCAUGAUGUCAGGGUCAGCCUGAAGCUAUUGCUGCUCGUCUACCAGGAGGAUGUGGAGAUCUUUAGACACGAAAUGCGUGCUAG,2.47
GGAAAUGGGACUUUGUGCAGGUAACCACCCUGCACUUCAGGUAAUGUUCCUGUCACAGCUGUCGACUACCCCACGCUGCAGGAAAUCCAUUCAGAAAUGAGCUAACAGUC,0.262
UGGUCUGGCUGUACUGGCAACGCGGUGCUGGGCCCAUGUCUCAUACCUUGCCCUCAGCCUAUCCCUGAACUAAACAGGACCCACUGAGUCCCAGCCUCAGCAGGCUGCUU,0.22
AAGGUUCUUUUAACUGCUAACUGAAAAUGGAAUGAAAUUGCAUCCAUAGAUACUGAUGGGAUGCCAGGCUUGGAAAGUAGCUAGAAUGUAGAAGGUAUGUUGACAAAUAA,5.07

# Study 2
# Target: Sal-like protein 4, full length isoform B (SALL4, Homo sapiens, UniProt Q9UJQ4-2, residues 1-616)
# Method: universal PBM
# Molecule type: double-stranded DNA, one strand shown
# Sample: in vitro
# Tested at: not given
# Notes: 8-mer, flanks averaged, mean of replicates
# Direction: higher = stronger binding
Oligonucleotide,E-score
AAATTTAC,0.32
AACCTCGA,0.0173
CAGATATC,0.131
CATAGTAA,0.296
CGGACGCA,-0.275
CCCACGCA,-0.0365
GTCACGCA,-0.115
GAGGCAAC,-0.183
ACCAAAAC,0.171
ATCGAAGG,0.0826
GCGATCCC,-0.281
CACAGTCC,-0.208
GCGCCTTA,-0.21
AGACTCCC,-0.214
CGTGGAAC,-0.07
ATTCGGAA,0.0254
CCTCGTTA,0.112
AATGTGAA,0.341
ACAGGAAG,-0.0388
GAGGACAA,-0.0544
GATGTGGA,0.0731
GCGCACGA,-0.269
GCTACAGA,-0.11

# Study 3
# Target: Hepatocyte nuclear factor 3-alpha (Foxa1, Mus musculus, UniProt P35582, residues 1-468, full length assumed)
# Method: EMSA with sequencing
# Molecule type: double-stranded DNA, one strand shown
# Sample: in vitro
# Tested at: 10 and 20 nM
# Notes: whole designed probe, mean of two concentrations, ends assumed
# Reference: negative control set to 0
# Direction: higher = stronger binding
# Constant ends, left off below: GTGAGCGGTGCCCATTGATGGGGAAC … TTTCACTGGGATCGTGGGGAC
# Target sequence (chain): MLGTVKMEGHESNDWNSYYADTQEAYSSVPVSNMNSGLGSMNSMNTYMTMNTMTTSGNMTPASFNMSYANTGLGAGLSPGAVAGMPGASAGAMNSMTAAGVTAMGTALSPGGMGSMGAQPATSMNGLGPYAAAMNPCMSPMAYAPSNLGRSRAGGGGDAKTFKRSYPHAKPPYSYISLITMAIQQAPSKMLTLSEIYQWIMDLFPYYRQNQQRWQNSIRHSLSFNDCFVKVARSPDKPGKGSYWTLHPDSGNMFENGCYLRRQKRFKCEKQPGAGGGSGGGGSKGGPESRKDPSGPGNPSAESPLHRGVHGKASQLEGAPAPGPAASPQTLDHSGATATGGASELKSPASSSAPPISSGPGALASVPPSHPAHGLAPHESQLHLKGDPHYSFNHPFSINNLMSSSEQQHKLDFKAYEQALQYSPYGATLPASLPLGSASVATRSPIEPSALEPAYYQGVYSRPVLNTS
Oligonucleotide,normalised bound fraction
ATCTTCCCCCTCTTCCTTGCCCCACCAGCTCACCTACGGGGGTTATTTGCACAAAGGAAAATAAATAAAGCCGGCATTCGTTAACGCAGTTCACGCGCATACTGCTGTTTGCTCTGCATGAATCATGGTCCTTACGCGAGGCGTGGCTCCGGGAGAGCAAAGCACCGTGTCAGGCGCATGATCCGGGCTCGCC,0.391 ratio
ATCTTCCCCCTCTTCCTTGCCCCACCAGCTCACCTTCCCGGGTATATTGGAGATAGGAAAATAAATAAAGCCGGCATTCGTTAACCCTCTTCTGGCGCAAACTGCACATTGGTCTGGATGAATCATGGTCCTTTGGCGACGCCAGGCTCCGGGAGAGCAAAGCACCGTGTCAGGGCCATGATCCGGGGTGGCC,0.295 ratio
TTTTTTCTGTACAGGGAAAAATAGTGAATATTTCAAAATTGTGAAACAAAGAGTCTCTGTGGCAACTACTCATTAGTTGCATAACGACAATATGCAAACAAATGAGTGTGTCTGTGTTCCAATAAAACTGTATTTACAAAAGCAGAAGGCCACCCATGTGCCAATGTCCAAAGTTTCTCAACCAACCCCTGGT,0.419 ratio
ATCTTCCCCCTCTTCCTTGCCCCACCAGCTCACCTACGGGGGTTATTTGCAGATAGGAAAATAAATAAAGCCGGCATTCGTTAACCCTCTTCACGCGCATACTGCTGTTTGCTCTGGATGAATCATGGTCCTTTGGCGAGGCGTGGCTCCGGGAGAGCAAAGCACCGTGTCAGGGCCATGATCCGGGCTCGCC,0.339 ratio
GTGTGTGCGCGCGCGTGTGTGTGTGTTTTCTTAAGCCGGGCTATTCAAACCCTGCTGCAATTCTCCGGTAAACAATGTTACATGGGGCATAATGCAAATAAACGGATTGCAAACGGCGCGGTTCGCGCACTTTGCAGCCGGCCCGGTGGAGCAGCCAGTGCCGGATTTCTCCCTTTTTTTGCAGATCTGCAGA,0.424 ratio
GATGTTAGCAATCAAAATACTTTTCAAAACATCTGAGTCTACAGAGGCTGATTTGAGCACATCCGGAGAATTGGGCTCCAAAAATATTAAAAGTAAACAGGGACATAAATTGTATGGATATATTATTCTAAATATTCCCATCTTTTCTCTGTTGCAAGTTTGTGAATGTGGGTGGAATGGGCTTATTAATGGA,0.247 ratio
GGTGAATGGATTAGCGCTTAAGTGATGAATCAACTCCAACATCACCCGCTACCCTCTGCCCCATCATACCCTCATAAATCACTGTGTCATTGTTATGTACATAGTCCAACAGGATATCCAGTAATTTTTCTGTGTACACTCAGACTCTGAAATTTGATTTGTATATTGGAATAGTTTGTTCCCATCTGATTTC,0.235 ratio
ATCTTCCCCCTCTTCCTTGCCCCACCAGCTCACCTTCCCGGGTTGTTTACTTTGAGGAAATTAATATAAGCCGGCATTCGTTAACCCTCTTCTGGCGCAAACTGCTGTTTGCTCTGGATGAATCATGGTCCTTTGGCGACGCCAGGCTCCGGGAGAGCAAAGCACCGTGTCAGGGCCATGATCCGGGGTGGCC,0.302 ratio

# Study 4
# Target: Interferon regulatory factor 7, full length, phosphomimetic (IRF7, Homo sapiens, UniProt Q92985, residues 1-503, S471D/S472D/S475D/S476D/S477D/S483D/S484D/S487D)
# Method: protein-binding microarray
# Molecule type: double-stranded DNA, one strand shown
# Sample: in vitro
# Tested at: 2200 nM top
# Notes: 60-bp whole probe
# Added: salmon DNA 0.4 mg/ml
# Reference: random background probes
# Direction: higher = stronger binding
# Constant ends, left off below: GCCTAGCAC … GTCTTGATTCGCTTGACGCTGCTG
# Target sequence (chain): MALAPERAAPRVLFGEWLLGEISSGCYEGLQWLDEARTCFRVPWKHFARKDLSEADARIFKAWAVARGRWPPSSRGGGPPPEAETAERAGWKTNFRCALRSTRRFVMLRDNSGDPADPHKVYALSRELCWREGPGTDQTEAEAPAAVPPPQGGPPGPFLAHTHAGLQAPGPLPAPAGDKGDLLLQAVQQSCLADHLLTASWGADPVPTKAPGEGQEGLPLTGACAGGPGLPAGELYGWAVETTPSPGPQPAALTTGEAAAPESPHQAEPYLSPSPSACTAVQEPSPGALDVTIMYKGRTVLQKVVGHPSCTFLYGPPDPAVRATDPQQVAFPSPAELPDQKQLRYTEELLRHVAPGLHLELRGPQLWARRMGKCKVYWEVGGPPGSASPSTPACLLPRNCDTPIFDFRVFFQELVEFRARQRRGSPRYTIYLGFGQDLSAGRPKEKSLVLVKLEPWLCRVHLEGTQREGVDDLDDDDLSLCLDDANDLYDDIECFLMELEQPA
Oligonucleotide,fitted relative affinity
GACGGACTGGACTTTCGGGTCGTGCTA,5.55 z-score
GACGATTCCAGTTTCCAGACGTGCTAG,2.21 z-score
GACTGTTTCCTTCTCCTGACGTGCTAG,2.93 z-score
TCAGTTTTAAATTCTAAACTGTGCTAG,0.583 z-score
TCATTTTTGGTAATAGTACTGTGCTAG,1.67 z-score
TTAGGTATCAGTTTCGGTTAGTGCTAG,7.5 z-score
TTAGGTAGCGACTATCGGTTAGTGCTA,-0.216 z-score
ATCTTCATGAAGTTTTAATAAGTGCTA,-0.3 z-score
TTAGGACTTCTTATCCTTTAGTGCTAG,0.398 z-score
TTAGATCTCAGTCTCGATTCGTGCTAG,1.31 z-score
GACGGAATGCTACTGCTGACGTGCTAG,-0.198 z-score
TCAGGAAATGGGAAACCCACTGTGCTA,-0.555 z-score
TCACCTAGCCATTATGAGACTGTGCTA,0.363 z-score
TTAGGCCTCGGTCTCGGTTAGTGCTAG,0.16 z-score
TTAGATTTCGGGGTTCGATTAGTGCTA,1.96 z-score
TCATTTTCATTTTCCAAACTGTGCTAG,8.02 z-score
ACATATATACAGAGATAGATGTGCTAG,0.0536 z-score

# Study 5
# Target: POU domain, class 5, transcription factor 1, POU domain (Pou5f1, Mus musculus, UniProt P20263, residues 131-289)
# UniProt P20263, sequence (131-289, looked up): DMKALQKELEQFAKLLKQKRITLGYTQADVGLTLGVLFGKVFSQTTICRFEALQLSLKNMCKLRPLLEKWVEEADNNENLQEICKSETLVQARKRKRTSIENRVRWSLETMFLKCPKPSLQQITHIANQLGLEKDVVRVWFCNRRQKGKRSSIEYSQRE
# Method: Spec-seq
# Molecule type: double-stranded DNA, one strand shown
# Sample: in vitro
# Tested at: not given
# Notes: whole probe, mean of replicates
# Reference: not given
# Direction: lower = stronger binding
# Constant ends, left off below: GAGTCGTCTCGTCAGCAC … CCGTAGAGCACTCAGGTC
Oligonucleotide,relative binding energy [ln ratio]
ATGCGCTC,0.559
ATGCAGAC,-0.105
ATGCGCCA,0.41
ATGCTATA,0.343
ATCAAGAT,0.587
GGCGTAAT,0.576
TCCTTAAT,0.673
ATGCAAAC,-0.634
ATGCGGTC,0.515
ACATTAAT,-0.137
TATCTAAT,0.458
ATGCATGC,-0.463
ACAGTAAT,0.558
GTAGTAAT,0.612
ATGCTCCC,0.693

# Excerpt of the above (study 5):
Oligonucleotide,relative binding energy [ln ratio]
ATCAAGAT,0.587
GGCGTAAT,0.576
TCCTTAAT,0.673
ATGCAAAC,-0.634
ATGCGGTC,0.515
ACATTAAT,-0.137
TATCTAAT,0.458
ATGCATGC,-0.463
ACAGTAAT,0.558
GTAGTAAT,0.612
ATGCTCCC,0.693
